Results from different studies.
Parts stem from different laboratories: compare values within a part only.

Series 1
Target: Histone acetyltransferase KAT6A, winged helix 2, GST fusion (KAT6A, Homo sapiens, UniProt Q92794, residues 85-181)
Method: protein binding microarray
Molecule type: double-stranded DNA, one strand shown
Sample: in vitro
Concentration: not given
Setting: 8-mer, flanks averaged, mean of 2 arrays, mostly near background
Baseline: not given
Reading: higher = stronger binding
Quantity: E-score
Residues (chain): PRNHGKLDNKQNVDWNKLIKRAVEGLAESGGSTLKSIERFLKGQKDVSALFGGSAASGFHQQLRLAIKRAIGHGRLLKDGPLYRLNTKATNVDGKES
AATCTCCT: 0.0589
AAACTACC: 0.0449
AAACGCCG: 0.136
AGGCAAAT: 0.114
CAAGGAGA: -0.162
AACCCACG: -0.0685
AGGTACCG: 0.0586
ACTCTGCT: 0.0605
CGGTCGCA: 0.0964
CATACTCG: -0.0571
CGGGTGCA: 0.0996

Series 2
Target: RNA binding protein fox-1 homolog 2, RRM domain, GST-SBP tag (RBFOX2, Homo sapiens, UniProt O43251-10, residues 100-194)
Method: RNA Bind-n-Seq
Molecule type: RNA
Sample: in vitro
Concentration: 365 nM
Setting: natural RNA segment, single round, ends assumed
Baseline: no-protein control
Reading: higher = stronger binding
Quantity: RBNS enrichment (R)
All sequences stand within: GGGAGUUCUACAGUCCGACGAUC … UGGAAUUCUCGGGUGCCAA
Target sequence (chain): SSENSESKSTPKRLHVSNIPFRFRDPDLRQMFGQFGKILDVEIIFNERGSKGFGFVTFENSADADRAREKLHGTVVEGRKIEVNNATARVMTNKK
ACUGGGCCCAGGCCAGGAGGGGCCCUGCCCAUGCCCACACUACAGGCCAGGGCUGCGGGGCUGGCGCAAUCCCAGCCCCCUUCCCCGGGCCACGGGGCCUUGGGUCCCUG: 0.379
AAGCAAUACCAUACUCAUUUCUAUGUUCCUGUUCCUUCCUCUGCUCCUCCUUUGGAGAAGCAAUAAUUCAUGGGGGAUGAUACAGUAGCACUUUACAAAUGGCUCCAUGU: 0.377
UGUGAUACAAGCCCCAGGACACCCCCACCCAAAGAGCCAAAGAAUAGUUCCCGCGACAUUCCGCCUUCCUCCGUUAGCCCCUUGGUAAUCCACCACCAAGCCUGGGGACU: 0.641
GUAUCAGAGAAUGCUGGUAGCUUAAAAUUUUUAUUUUAGGACUUGUACUCUGAAUUUUCAGGAACCGUCAAAGGAGCAGCAGCAAAUUCACAUAUUUUCGACUUGAGAAA: 0.325
GUGUGAUAGAGCCUUUGAUCUUCAGGAUGCACGGUUUCUGUUCUGCCCCCUCAGGGAUGUGGGAAUCUCCCAGACUUGUUUCCUGUGCCCAUCAUCUCUGCCUUUGAGUG: 0.278
UGCUUUUAAAAUAAGAUCUCUUUGUAGCCAUCCUGUUAAAUUUGUAAACAAUCUAAUUAAAUGGCAUCAGCACUUUAACCAAUGACGUUUGCAUAGAGAGAAAUGAUUGA: 0.677
UUCUCUGAGUAGUGGCUCCCCAGGUUUGUCCUUUGAGCUGAGGCAGGAGGCUCACCCAUUCUUCUGAAUAGGAACUGGGUGUUCCCACCCCCCAAGGACUGCAGGGCUUU: 0.311
AAGAUGUUGCACUGGUGGCAAUUCAUCAUGGAACAUAAUAAAAUUAAUUUGACCCAAAUAGUAUAAAUAGUGUGUCUCAUUUGUUAUUAAGAUGUUAAAAUAAGUAGAAA: 0.332

Series 3
Target: human cyclin B1
Observed: peptide binding
Method: yeast competitive growth sequencing
Molecule type: peptide
Organism: Saccharomyces cerevisiae
Strain: cyclin B1-Cln2 fusion
Concentration: concentration not given
Setting: peptide tiling library
Reading: direction not given
Quantity: binding enrichment score
LRRKLFLDGNGSIS: -0.331
DTERAHSTLDEDLERW: -0.166
ESSTVSEEDYFSSHRD: -0.152
EAAPPTQEAQGETEPT: 1.29
GAEELEDLVHFSVSEL: 1
VLVRTSACRSLFGPVD: -0.17
SAVPLILPQAPSGPSY: 0.826
TRRRLFVENDSP: 0.617
VEEEFFALRKRTPSAG: 0.27
LRRQLSFSED: 1.81
PLRKAKRARLCSSSSS: 1.03
NARRSLNFGGSTGT: 0.247
RKLHFEDEVT: 0.764
GLPDFVFQQQPVESEA: 0.403
ALTMEALEDPSPELME: 1.55
VKRLNFRSEEME: 1.21
TSPGPVLLHPSPSTTQ: 0.152
SDSTVTKLDFDLEP: 1.89

Series 4
Target: Sal-like protein 4, full length isoform B (SALL4, Homo sapiens, UniProt Q9UJQ4-2, residues 1-616)
Method: universal PBM
Molecule type: double-stranded DNA, one strand shown
Sample: in vitro
Concentration: not given
Setting: 8-mer, flanks averaged, mean of replicates
Reading: higher = stronger binding
Quantity: E-score
Target sequence (chain): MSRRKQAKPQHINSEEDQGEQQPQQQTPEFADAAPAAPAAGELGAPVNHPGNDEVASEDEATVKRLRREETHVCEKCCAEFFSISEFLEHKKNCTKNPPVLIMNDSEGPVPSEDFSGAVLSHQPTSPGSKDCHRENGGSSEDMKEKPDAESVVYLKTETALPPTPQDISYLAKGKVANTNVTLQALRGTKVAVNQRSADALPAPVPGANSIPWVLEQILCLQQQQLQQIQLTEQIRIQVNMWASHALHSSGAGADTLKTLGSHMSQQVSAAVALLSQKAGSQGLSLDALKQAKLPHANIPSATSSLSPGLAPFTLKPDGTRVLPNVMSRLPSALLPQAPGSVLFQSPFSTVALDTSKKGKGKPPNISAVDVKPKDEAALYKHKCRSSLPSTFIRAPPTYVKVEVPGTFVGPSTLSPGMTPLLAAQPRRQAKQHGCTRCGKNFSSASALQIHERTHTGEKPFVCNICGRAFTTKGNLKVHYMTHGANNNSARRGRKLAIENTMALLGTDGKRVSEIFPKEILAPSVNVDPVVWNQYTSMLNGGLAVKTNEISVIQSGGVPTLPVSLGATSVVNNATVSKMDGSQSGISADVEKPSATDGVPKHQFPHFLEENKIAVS
ACTGCATA: 0.181
AATAGTAC: 0.141
AGTACAAA: 0.185
AAGTTGGT: 0.0907
GAACGAAA: 0.0189
GCATGCCC: -0.0984
CATGATCG: 0.114
GACGAGGA: -0.0957
GGGAACTA: -0.0096
CATACTCA: 0.205
ATTCGACA: 0.0769
CTACCTGA: -0.00635
